# Measured values collected from several papers.
# Each line is one published result; not all experiments were run side by side.
# LRRK2 G2019S: Leucine-rich repeat serine/threonine-protein kinase 2 (LRRK2, Homo sapiens, UniProt Q5S007, G2019S)
# LRRK2: Leucine-rich repeat serine/threonine-protein kinase 2 (LRRK2, Homo sapiens, UniProt Q5S007)
Structure (SMILES),target,test,setting,scale,endpoint,result
Cc1ccc(-c2c(/C=C(\C#N)C(=O)NC(C)C)n(CCCO)c3ncnc(N)c23)cc1,LRRK2 G2019S,"cell-free assay, competition with immobilised ligand",1 µM,,remaining binding,100%
Cc1cnc2nc1Nc1cccc(c1)COC/C=C/COCc1cc(ccc1OCCN1CCOCC1)N2,LRRK2 G2019S,binding,0.1 µM,,remaining binding,100%
CC(C)=CC1OC(C)(C)C2C=C3C(=O)C(Cl)=CC(O)C3C3C(O)C4OC4C(=O)C132 (stereo not drawn),LRRK2 G2019S,"cell-free assay, competition with immobilised ligand",10 µM,,remaining binding,95%
CNC(=O)C[C@H](Cc1ccc(C#N)cc1)NC(=O)c1cc(-c2ccc(CN[C@H](C)c3ccc(C)cc3)o2)ccc1Cl,LRRK2,"enzyme activity, inhibitor",1 µM,,activity vs control,90%
C[C@]1(O)CCCN(c2nc(Nc3ccc(S(=O)(=O)N[C@H]4CC[C@H](CN5CCN(c6ccc(C7CCC(=O)NC7=O)cc6F)CC5)CC4)cc3)ncc2C(F)(F)F)C1 (stereo partly drawn),LRRK2 G2019S,"binding, competition with immobilised ligand",1 µM,,remaining binding,21%
C=CC(=O)N1CCCC(n2c(=O)c3ncccc3n(Cc3ccc(Oc4ccccc4)cc3)c2=O)C1 (stereo not drawn),LRRK2,"cell-free assay, competition with immobilised ligand",1 µM,,remaining binding,72%
NC(=O)[C@@H](O)C[C@H]1CCc2sc3ncnc(O[C@H]4CC[C@H](N5CCOCC5)CC4)c3c21,LRRK2,"enzyme activity, inhibitor",10 µM,,inhibition,7%
O=C(Nc1ccc(Oc2ncnc3[nH]cc(-c4ccccc4)c23)c(F)c1)c1c2n(n(-c3cc(F)ccc3F)c1=O)CCCC2,LRRK2,"enzyme activity, inhibitor",0.5 µM,,inhibition,4%
O=C(Cc1ccc(OCc2ccccc2)cc1)NC1(C(=O)O)CCN(C(=O)c2ccc(-c3cccc(Cl)c3)cc2)CC1,LRRK2,"enzyme activity, inhibitor",10 µM,,activity vs control,102%
Cc1cccc(O[C@H]2CCC[C@@H](C(C)CNCc3ccncc3)C2)c1 (relative stereo),LRRK2 G2019S,"enzyme activity, inhibitor",1 µM,,inhibition,0%
CNC1C[S+]2CC[S+]3CC[S+](C1)[Ru-4]321([N]=C=S)[n]2c3ccc(OC)cc3c3c4c(c5cc(F)c[n+]1c5c32)C(=O)NC4=O (stereo not drawn),LRRK2 G2019S,KinomeScan,0.1 µM,reference: untreated,remaining binding,80%
CNC(=O)C1CCN(c2cc(C)c(F)cc2NC(=O)c2ccc(-c3cc(O)ccc3C)c(C)c2)CC1,LRRK2,"binding, competition with immobilised ligand",1 µM,,remaining binding,100%
COc1c(Cl)cccc1Nc1c(-c2ccncc2C#C[C@@]2(C)CCCN2C(=O)/C=C/CN(C)C)[nH]c2c1C(=O)NCC2,LRRK2 G2019S,"binding, competition with immobilised ligand",3 µM,,remaining binding,73%
Nc1ncc2c(n1)-c1c([nH]c3ccc(C4=CCOCC4)cc13)CCC2,LRRK2 G2019S,"binding, competition with immobilised ligand",1 µM,,remaining binding,100%
COc1ccc(NC(=O)Nc2ccc3c(c2)C(=O)N(C(C)CO)CC(C)C(CN(C)Cc2ccc4c(c2)OCO4)O3)cc1 (stereo not drawn),LRRK2,"kinase activity, KinaseProfiler","0.03 µM, species human",reference: control,remaining activity,104%
C=CC(=O)N1CCc2ccc(-n3c(=O)ccc4cnc5ccc(-c6cnn(C)c6)cc5c43)cc21,LRRK2,KINOMEscan,1 µM,reference: DMSO control,remaining binding,99%
CCN1CCN(Cc2ccc(C(=O)Nc3ccc(C)c(NCc4cnc5[nH]ccc5c4OC)c3)cc2C(F)(F)F)CC1,LRRK2,"binding, competition with immobilised ligand",1 µM,,remaining binding,97%
C=CC(=O)Nc1cccc(-c2cnc3[nH]cc(C(=O)NC(C)(C)C)c3n2)c1,LRRK2 G2019S,"enzyme activity, inhibitor",0.1 µM,,inhibition,62%
